Measurements pooled from the literature.
Protocols differ between the studies behind these lines. Values joined by “and” are separate records of one study, mostly repeats; a detail may differ.
Chain of UniProt P49146 (whole entry, looked up): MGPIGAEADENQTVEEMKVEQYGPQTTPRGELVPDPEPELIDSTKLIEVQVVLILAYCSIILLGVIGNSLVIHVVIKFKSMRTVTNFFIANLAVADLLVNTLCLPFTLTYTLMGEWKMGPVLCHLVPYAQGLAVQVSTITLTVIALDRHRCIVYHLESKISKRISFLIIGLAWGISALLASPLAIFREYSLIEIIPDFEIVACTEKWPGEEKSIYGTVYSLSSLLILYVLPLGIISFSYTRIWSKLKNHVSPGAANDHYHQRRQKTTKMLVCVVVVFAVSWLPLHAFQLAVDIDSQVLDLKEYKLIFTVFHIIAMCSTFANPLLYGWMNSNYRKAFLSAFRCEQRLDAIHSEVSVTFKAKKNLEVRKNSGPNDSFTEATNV
Chain of UniProt Q9C0E2 (whole entry, looked up): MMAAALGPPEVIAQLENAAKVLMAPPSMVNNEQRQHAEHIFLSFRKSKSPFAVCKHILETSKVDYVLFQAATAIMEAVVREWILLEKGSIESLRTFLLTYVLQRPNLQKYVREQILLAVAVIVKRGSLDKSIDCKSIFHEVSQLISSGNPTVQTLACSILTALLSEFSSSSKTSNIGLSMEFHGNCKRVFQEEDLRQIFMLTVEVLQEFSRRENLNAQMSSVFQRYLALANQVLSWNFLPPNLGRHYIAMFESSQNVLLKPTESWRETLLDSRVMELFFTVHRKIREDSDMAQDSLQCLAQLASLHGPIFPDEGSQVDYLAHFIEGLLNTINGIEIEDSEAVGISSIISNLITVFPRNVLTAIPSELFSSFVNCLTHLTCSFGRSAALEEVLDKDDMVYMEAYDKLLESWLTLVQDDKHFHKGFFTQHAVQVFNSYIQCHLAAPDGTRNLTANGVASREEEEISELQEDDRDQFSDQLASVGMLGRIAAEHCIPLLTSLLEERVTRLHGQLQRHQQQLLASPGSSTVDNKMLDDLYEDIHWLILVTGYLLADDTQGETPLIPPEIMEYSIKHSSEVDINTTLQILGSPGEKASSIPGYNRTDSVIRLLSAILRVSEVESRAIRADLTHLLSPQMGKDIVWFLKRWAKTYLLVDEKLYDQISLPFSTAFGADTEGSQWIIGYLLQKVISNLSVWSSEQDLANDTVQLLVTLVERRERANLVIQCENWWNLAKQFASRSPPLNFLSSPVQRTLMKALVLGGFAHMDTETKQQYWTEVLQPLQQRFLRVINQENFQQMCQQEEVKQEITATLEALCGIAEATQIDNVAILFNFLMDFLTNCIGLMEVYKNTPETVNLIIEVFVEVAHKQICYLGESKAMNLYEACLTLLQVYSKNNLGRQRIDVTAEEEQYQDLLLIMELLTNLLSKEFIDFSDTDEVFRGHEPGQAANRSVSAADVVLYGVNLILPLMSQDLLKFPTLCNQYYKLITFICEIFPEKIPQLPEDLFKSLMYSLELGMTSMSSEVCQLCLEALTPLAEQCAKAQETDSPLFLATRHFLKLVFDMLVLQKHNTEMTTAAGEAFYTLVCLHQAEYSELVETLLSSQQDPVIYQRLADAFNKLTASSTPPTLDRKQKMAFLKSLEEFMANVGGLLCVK

SMILES	tested on	assay	system	setting	how to read	measurement	result
Clc1cc2c(cc1Cl)Oc1cc(Cl)c(Cl)cc1O2		RNA-Seq, measured: Ptgir	female Sprague-Dawley rat, liver	10 µg/kg	reference: vehicle	mRNA level	1.7 fold
NC(=O)c1ncn([C@@H]2O[C@H](CO)[C@@H](O)[C@H]2O)c1N		binding, MIDAS equilibrium dialysis LC-MS	A2AR-BRIL thermostabilized	concentration not given	reference: no-protein control	log2 fold change	-0.139
C[C@]1(O)CC[C@@]2(C)[C@@H](CC[C@@H]3[C@@H]2CC[C@]2(C)[C@@H]([N+](=O)[O-])CC[C@@H]32)C1			male NIH Swiss mice	i.p., dose not given, 15 min before test, 6 Hz seizure model		seizure protection	inactive
CC1(C(=O)O)C2CCC(O2)C1(C)C(=O)O (stereo not drawn)	Plasmodium falciparum		W2			IC50	1.26 µM
CCCCC1(CCCC)CN(c2ccccc2)c2cc(SC)c(OCC(=O)N[C@@H](C(=O)NCC(=O)O)c3ccccc3)cc2S(=O)(=O)C1		measured: LDL cholesterol	human, serum	2.5 mg once daily, day 2		serum LDL-C	108 mg/dL
COc1cc(Nc2ncc(F)c(Nc3ccc4c(n3)NC(=O)C(C)(C)O4)n2)cc(OC)c1OC	NPY2R (Homo sapiens, UniProt P49146)					IC50	> 10 µM
C[C@H]1O[C@@H](O[C@H]2CC[C@@]3(C)[C@@H](CC[C@]4(C)[C@@H]3C=C[C@]35OC[C@@]6(CCC(C)(C)C[C@H]63)[C@@H](O)C[C@]54C)[C@]2(C)CO)[C@H](O)[C@@H](O[C@@H]2O[C@H](CO)[C@@H](O)[C@H](O)[C@H]2O)[C@H]1O		measured: FAS	ethanol-fed mice, hepatic SIRT1 knockdown (AAV8-TBG-SIRT1), liver	dose not given, high dose, unit not given	reference: AAV8-TBG-Null ethanol group	mRNA level	1.25 and 0.98 and 0.86 and 0.88 and 1 and 0.83
CC[C@H](C)[C@H](NC(=O)[C@H](CCCNC(=N)N)NC(=O)[C@H](CO)NC(=O)[C@H](Cc1ccc(O)cc1)NC(=O)[C@@H](NC(=O)[C@@H](NC(=O)[C@H](C)NC(=O)CN)C(C)C)[C@@H](C)O)C(=O)N[C@@H](CO)C(=O)NCC(=O)N[C@@H](CCC(N)=O)C(=O)N[C@@H](Cc1ccc(O)cc1)C(=O)O		broth microdilution	29213, Mueller-Hinton broth	16 to 18 h, 37 °C		MIC	> 512 µM
CN1CCN(S(=O)(=O)c2cc([N+](=O)[O-])ccc2N(CCOS(C)(=O)=O)CCOS(C)(=O)=O)CC1			NSG mice, sample CH PDX	intraperitoneal, 25 mg/kg weekly x3	reference: vehicle	EFS delay (T-C)	> 360 days
CC[C@H](C)[C@@H]1NC(=O)[C@@H]2CCCN2C(=O)[C@H](CC(C)C)NC(=O)[C@H](CC(C)C)NC(=O)CNC(=O)[C@@H](NC(=O)[C@@H](NC(=O)[C@H](CC(=O)O)NC(=O)CNC(=O)[C@@H](NC(=O)[C@H](C)NC(=O)CNC(=O)[C@H](CCCCN)NC(=O)[C@H](CC(C)C)NC(=O)[C@H](CC(C)C)NC(=O)[C@H](CCCCN)NC(=O)CNC(=O)[C@@H](NC(=O)[C@@H](N)CC(C)C)C(C)C)C(C)C)C(C)C)CSSC[C@@H](C(=O)O)NC1=O		RNA-seq, measured: Slc15a3	mouse, traumatic brain injury model, frontal cortex and hippocampus	dose not given	reference: TBI alone	log2 fold change	-2.61
CC1=C(C)C(=O)C(CCCCC#CCCCC#CCO)=C(C)C1=O	Plasmodium falciparum		W2			IC50	3.98 µM
C[C@H]1CN(c2n[nH]c3nc(N[C@H]4CC[C@H](NS(=O)(=O)CCC(F)(F)F)CC4)ncc23)CCO1	Exportin-4 (Homo sapiens, UniProt Q9C0E2)	Kinobeads competition, measured: XPO4		20 µM, unit not given	reference: vehicle	remaining binding	1.23

Some of these lines once more:
SMILES	tested on	assay	system	setting	how to read	measurement	result
C[C@]1(O)CC[C@@]2(C)[C@@H](CC[C@@H]3[C@@H]2CC[C@]2(C)[C@@H]([N+](=O)[O-])CC[C@@H]32)C1			male NIH Swiss mice	i.p., dose not given, 15 min before test, 6 Hz seizure model		seizure protection	inactive
CC1(C(=O)O)C2CCC(O2)C1(C)C(=O)O (stereo not drawn)	Plasmodium falciparum		W2			IC50	1.26 µM
